Experimental data collected from several papers.
Protocols differ between the studies behind these lines. ± marks the error that the study gave.

Molecule	assay	system	conditions	scale	quantity	result
OC[C@@H](O)[C@@H](O)[C@H](O)[C@H](O)CO	equilibrium dialysis	cellulose membrane, cell-free	pH 7.4, added: 0.1% w/w Pluronic P85		effective permeability	129 ± 16 ×10⁻⁶ cm/s
CCCC(C)N1CCC(N(Cc2ccccc2)C(=O)Nc2ccc(C(F)(F)F)nc2C)CC1 (stereo not drawn)		CD-1 female mouse, liver microsomes	0.8 µM		intrinsic clearance	< 13 mL/min/kg
CCC(C)n1ncn(-c2ccc(N3CCN(c4ccc(OCC5COC(Cn6cncn6)(c6ccc(Cl)cc6Cl)O5)cc4)CC3)cc2)c1=O (stereo not drawn)	shake-flask	PEG400	37 °C		thermodynamic solubility	2.47 ± 0.08 mg/g
CCCC[C@@H]1NC(=O)[C@@H](NC(=O)[C@H](CCC(=O)O)NC(=O)CNC(=O)CN2CCN(CC(=O)O)CCN(CC(=O)O)CCN(CC(=O)O)CC2)CCCCNC(=O)C[C@@H](C(N)=O)NC(=O)[C@H](C(C)C)NC(=O)[C@@H]2CCCN2C(=O)[C@H](CCCNC(=N)N)NC(=O)CNC(=O)[C@H](Cc2c[nH]c3ccccc23)NC(=O)[C@H](CCCNC(=N)N)NC(=O)[C@@H](Cc2ccccc2)NC(=O)[C@H](Cc2c[nH]cn2)NC(=O)[C@H](CCC(=O)O)NC1=O [indium-111 labelled]		normal C57 mice, spleen	intravenous, 0.037 MBq, 2 h		tissue uptake	0.06 ± 0.04 %ID/g
[2H]C([2H])([2H])NC(=O)c1cc(Oc2ccc(NC(=O)Nc3ccc(Cl)c(C(F)(F)F)c3)cc2)ccn1		male Sprague-Dawley rat, plasma	dose not given, not significant, added: telmisartan multiple doses	baseline: compound alone	decrease in AUC(0-t)	54.9%
Cc1ncnc2c1c(Cl)cn2[C@@H]1O[C@H](CO)[C@@H](O)[C@H]1O	metabolic stability	mouse, liver microsomes	30 min		compound remaining	104%
68Ga-DOTA	PET	Yucatan minipig, lean, pancreas	iv, 1.2 MBq/kg, 1-tissue compartment model		K1	1.57 ± 0.67 mL/cm³/min
Cc1cc(Nc2cc3ncccc3c(N[C@@H]3C[C@H]4CC[C@@H](C3)N4CCC#N)n2)n[nH]1		pregnant rat, maternal plasma	oral, 100 mg/kg/day, gestation day 6		Cmax	5.99 ng/mL
Cc1nc2cccc(OCC(C)(C)C(=O)NC(C)C)c2c(N)c1C(=O)O		female Sprague-Dawley rat, plasma	oral gavage, 10 mg/kg, day 7		Tmax	0.33 h
COc1ccc2c(c1OC)C(=O)O[C@@H]2[C@H]1c2c(cc3c(c2OC)OCO3)CCN1C	shake-flask	polysorbate 80	37 °C		thermodynamic solubility	14.3 ± 0.91 mg/g
CCCOc1ccc([C@H]2CNC(=O)N2c2ccc3[nH]cnc3c2)cc1		non-elderly adults, fasted, plasma	oral, 200 mg twice daily, day 11, 2 to 12 h postdose, oral solution, geometric mean		effective half-life	2.72 h
CCCCCCCCC[C@H](O)CC(=O)CCc1ccc(O)c(OC)c1		rat, small intestine site 4 contents	oral, dose not given, 2 h, β-glucuronidase treated	baseline: ingested amount	recovery	9.92%
Cc1cccc(Nc2ccccc2C(=O)O)c1C	shake-flask	Captex 355	37 °C		thermodynamic solubility	2.72 ± 0.04 mg/g
Cc1cc(Nc2ncc(Cl)c(Nc3ccccc3S(=O)(=O)C(C)C)n2)c(OC(C)C)cc1C1CCNCC1	measured: total drug	human, enhancing tumour over plasma	oral, 450 mg/day, 23 to 25 h after dose 10		Kp	55
O=C(CCCN1CC=C(n2c(=O)[nH]c3ccccc32)CC1)c1ccc(F)cc1		male Hartley guinea pig, anaesthetized	intravenous infusion, 0.1 mg/kg, 10 min infusion	baseline: baseline	QTc change	6.7 ± 2.3%
CC(=O)Oc1ccc(/C=C\C(=O)Nc2ccc(S(N)(=O)=O)cc2)cc1OC(C)=O		n-octanol/PBS	pH 7.4		log P	0.199
O=C(NC[C@H]1CN(c2ccc(N3CCOCC3=O)cc2)C(=O)O1)c1ccc(Cl)s1		renal impairment patients	oral, 10 mg	baseline: normal renal function	half-life increase	1 to 2 h
N[C@@H](CC(=O)N1CCn2c(nnc2C(F)(F)F)C1)Cc1cc(F)c(F)cc1F		healthy Korean subjects, plasma	oral, 100 mg single dose, ABCB1 G2677T/A AT+GA		AUC(0-2 h)	464 ± 162 ng·h/mL

A few entries again:
Molecule	assay	system	conditions	scale	quantity	result
Cc1cccc(Nc2ccccc2C(=O)O)c1C	shake-flask	Captex 355	37 °C		thermodynamic solubility	2.72 ± 0.04 mg/g
Cc1cc(Nc2ncc(Cl)c(Nc3ccccc3S(=O)(=O)C(C)C)n2)c(OC(C)C)cc1C1CCNCC1	measured: total drug	human, enhancing tumour over plasma	oral, 450 mg/day, 23 to 25 h after dose 10		Kp	55
O=C(CCCN1CC=C(n2c(=O)[nH]c3ccccc32)CC1)c1ccc(F)cc1		male Hartley guinea pig, anaesthetized	intravenous infusion, 0.1 mg/kg, 10 min infusion	baseline: baseline	QTc change	6.7 ± 2.3%
